Published values from different studies.
“And” joins repeats or separate records; there may be more than shown. ± gives the spread as reported. Converted amounts (≈) assume the structure as drawn.

O=C1/C(=C/c2ccc([N+](=O)[O-])cc2[N+](=O)[O-])NC(=S)N1c1ccccc1 — inhibition zone diameter (Fusarium solani; concentration not given): 20 ± 0.91 mm
CC(C)C(=O)OC[C@@]1(F)O[C@@H](n2cnc(-c3cnc(N)nc3)c2)[C@H](OC(=O)C(C)C)[C@@H]1OC(=O)C(C)C — EC50 (Dengue virus; viral replication; Huh-7, DENV-2; 48 h): 18 µM
N#Cc1c(-c2ccc(OCc3ccccc3)cc2)c(C(N)=O)c(N)n(N)c1=O — viable count (Escherichia coli; time-kill; 1 x MIC, 90 min): 0 log CFU/mL
CCNC(=O)c1cnn(-c2ccc(-n3ccc(Cl)c(Cl)c3=O)cc2)c1C(F)(F)F — effective concentration (amyloid beta oligomers; dendritic length, MAP2 staining; primary rat hippocampal neurons; together with: 7PA2 conditioned medium): ≥ 250 nM
CCOC(=O)c1ccccc1-c1c2ccc(=O)cc-2oc2cc(OC3C=C(C)C(=O)O3)ccc12 (centres unmarked) — maximum germination stimulation (Phelipanche ramosa; stimulant; 1 µM; relative to: (±)-GR24): 91%
Nc1nc(-c2ccccc2)nc2[nH]nc(Nc3ccc(C(F)(F)F)cc3)c12 — clinical score (coxsackievirus B3; 31-1-93, NMRI mice, CVB3 chronic myocarditis; oral, 100 mg/kg twice daily, day 14, dosed days 0 to 6, score scale 0 to 7; direction not given): 0
CC(C)n1ncc2c(C(=O)NCC3(C)CNC3)cc(C3CC3)nc21 — cell protection (Enterovirus D68; cytopathic effect; RD, US/KY/14-18953; 50 nM): -0.141% and 0.704%
Cc1ccc(CCC(=O)Nc2nnc(S(N)(=O)=O)s2)cc1 — MIC (Enterococcus gallinarum; ATCC 49573): 0.0123 mM
CC(C)C(=O)OC[C@@]1(F)O[C@@H](n2cnc(-c3c[nH]c(=O)[nH]c3=O)c2)[C@H](OC(=O)C(C)C)[C@@H]1OC(=O)C(C)C — EC50 (Dengue virus; viral replication; Huh-7, DENV-2; 48 h): > 100 µM
CN[C@H](CC(C)C)C(=O)N[C@H]1C(=O)N[C@@H](CC(N)=O)C(=O)N[C@H]2C(=O)N[C@H]3C(=O)N[C@H](C(=O)N[C@H](C(=O)O)c4cc(O)cc(O)c4-c4cc3ccc4O)[C@H](O)c3ccc(c(Cl)c3)Oc3cc2cc(c3O[C@@H]2O[C@H](CO)[C@@H](O)[C@H](O)[C@H]2O[C@H]2C[C@](C)(N)[C@H](O)[C@H](C)O2)Oc2ccc(cc2Cl)[C@H]1O — MBC range (Streptococcus pyogenes; ATCC 13813; 1 strain): > 32 µg/mL
COc1ncc(-c2cn([C@@H]3O[C@](F)(CO)[C@@H](O)[C@H]3O)cn2)c(N)n1 — EC50 (Dengue virus; viral replication; Huh-7, DENV-4; 48 h): > 100 µM
N=C(N)c1ccc(OCCC(CCOc2ccc(C(=N)N)cc2)c2ccccc2)cc1 (centres unmarked) — MIC in combination (Klebsiella pneumoniae; ATCC 13883; concentration not given, together with: rifampicin): 12.5 µg/mL
CC1(C)S[C@@H]2[C@H](NC(=O)[C@H](N)c3ccccc3)C(=O)N2[C@H]1C(=O)O — MIC (Salmonella enterica serovar München; broth microdilution; clinical isolate RKI-No 419/14): > 16 µg/mL
CC(C)Oc1c(NC(=O)c2ccc(NC(=O)[C@H](CC(N)=O)NC(=O)c3ccc(NC(=O)c4ccc(C#N)cc4)cc3)cc2)ccc(C(=O)Nc2ccc(C(=O)O)cc2)c1O — bacterial burden reduction (Escherichia coli; ATCC 25922, neutropenic mouse thigh infection; intravenous, 50 mg/kg/day, 12.5 mg/kg/dose; relative to: vehicle): 4.89 log10 CFU/g
CO[C@H]1/C=C/O[C@@]2(C)Oc3c(C)c(O)c4c(c3C2=O)C2=NC3(CCN(CC(C)C)CC3)NC2=C(NC(=O)/C(C)=C\C=C\[C@H](C)[C@H](O)[C@@H](C)[C@@H](O)[C@@H](C)[C@H](OC(C)=O)[C@@H]1C)C4=O — MIC90 (Mycobacteroides abscessus): 9.1 mM (≈ 7710 µg/mL)
C#CCCCC(=O)NCC — inhibition (Escherichia coli; LuxR reporter, antagonist; DH5α sensor strain; 1 µM, together with: OHHL 200 nM): 14 ± 1%
COC(=O)[C@@H](CCSC)NCc1cc2ccccc2nc1SC — growth (Pseudomonas aeruginosa; 32 µg/mL, together with: pentamidine 100 µM; relative to: control): 76.9%
CCc1nn(C)c2nc(-c3ccc(C(=O)O)cc3)nc(NCc3ccc(F)cc3)c12 — inhibition (Cryptosporidium parvum; parasite growth, immunofluorescence imaging; HCT-8, Iowa; 53.9 µM): 93.4% and 93.9%
CC[C@H]1OC(=O)[C@H](C)[C@@H](O[C@H]2C[C@@](C)(OC)[C@@H](O)[C@H](C)O2)[C@H](C)[C@@H](O[C@@H]2O[C@H](C)C[C@H](N(C)C)[C@H]2O)[C@](C)(O)C[C@@H](C)C(=O)[C@H](C)[C@@H](O)[C@]1(C)O — growth inhibition (Vibrio natriegens; ATCC 14048 SbmA deletion, BHI medium; 25 µM, 6 h, 37 °C): inhibited
CC(C)C(=O)OC[C@@]1(F)O[C@@H](n2cnc(-c3cnc(=O)[nH]c3)c2)[C@H](OC(=O)C(C)C)[C@@H]1OC(=O)C(C)C — EC50 (Dengue virus; viral replication; Huh-7, DENV-2; 48 h): > 100 µM
COc1ccc(/C=C2\NC(=S)N(c3ccccc3)C2=O)c(OC)c1 — inhibition zone diameter (Fusarium solani; concentration not given): 15 ± 0.52 mm
COc1ncc(-c2cn([C@@H]3O[C@](F)(COC(=O)C(C)C)[C@@H](OC(=O)C(C)C)[C@H]3OC(=O)C(C)C)cn2)cn1 — EC50 (Dengue virus; viral replication; Huh-7, DENV-4; 48 h): > 100 µM
CCCCCCCCCC(=O)N[C@@H](Cc1c[nH]c2ccccc12)C(=O)N[C@H](CC(N)=O)C(=O)N[C@@H](CC(=O)O)C(=O)N[C@@H]1C(=O)NCC(=O)N[C@@H](CCCN)C(=O)N[C@@H](CC(=O)O)C(=O)N[C@H](C)C(=O)N[C@@H](CC(=O)O)C(=O)NCC(=O)N[C@H](CO)C(=O)N[C@@H]([C@H](C)CC(=O)O)C(=O)N[C@@H](CC(=O)c2ccccc2N)C(=O)O[C@@H]1C — MIC (Staphylococcus aureus; broth microdilution; MRSA USA300, Mueller-Hinton broth, Mg2+ 10 mg/L; 16 h, 37 °C, together with: Ca2+ 1.0 mM): 0.5 µg/mL
CC(C)c1ccc(/C=C2\N=C(SCC(=O)c3ccccc3)N(c3ccccc3)C2=O)cc1 — inhibition zone diameter (Fusarium solani; concentration not given): 15 ± 0.12 mm
CN[C@H](CC(C)C)C(=O)N[C@H]1C(=O)N[C@@H](CC(N)=O)C(=O)N[C@H]2C(=O)N[C@H]3C(=O)N[C@H](C(=O)N[C@H](C(=O)O)c4cc(O)cc(O)c4-c4cc3ccc4O)[C@H](O)c3ccc(c(Cl)c3)Oc3cc2cc(c3O[C@@H]2O[C@H](CO)[C@@H](O)[C@H](O)[C@H]2O[C@H]2C[C@](C)(N)[C@H](O)[C@H](C)O2)Oc2ccc(cc2Cl)[C@H]1O — MIC50 (Streptococcus pneumoniae): 0.5 µg/mL (≈ 0.345 µM)
Cc1cc(Nc2ccc(S(F)(F)(F)(F)F)cc2)n2nc(C(C)(F)F)nc2n1 — parasite clearance half-life (Plasmodium falciparum; microscopy; human malaria patients; 400 mg, mean): 4.9 h
Cc1c(Cl)cccc1Nc1ccccc1C(=O)O — IC50 (Phelipanche ramosa; seed germination, antagonist; together with: 2-PEITC 100 nM): 18 µM
CNC(C)C1CCC(N)C(OC2C(N)CC(N)C(OC3OCC(C)(O)C(NC)C3O)C2O)O1 (centres unmarked) — MIC (Pseudomonas aeruginosa; clinical isolate RKI-No_482/15): > 8 µg/mL
C[C@@H](CO)CCC[C@@H](C)[C@H]1CC[C@H]2[C@@H]3CC=C4C[C@@H](O)CC[C@]4(C)[C@H]3CC[C@]12C — EC90 (human rotavirus; viral replication; Caco-2, DS-1): 2.62 µM
CC(C)[C@@H]1NC(=O)[C@@H](CCCNC(=N)N)NC(=O)[C@H]([C@@H](C)O)NC(=O)[C@@H](CCCN)NC(=O)[C@H](Cc2ccccc2)NC(=O)[C@@H](Cc2ccc(O)cc2)NC1=O — growth inhibition (Balamuthia mandrillaris; CellTiter-Glo; trophozoites; concentration not given): inactive
COC(=O)[C@@H](NCc1cc2ccccc2nc1OCc1ccccc1)C(C)C — growth (Pseudomonas aeruginosa; 64 µg/mL, together with: pentamidine 100 µM; relative to: control): 94.5%
Cc1c(CN(C)C(=O)/C=C/c2cnc3c(c2)CC(NC(=O)OC(C)(C)C)C(=O)N3)oc2ccccc12 (centres unmarked) — MIC (Klebsiella pneumoniae; broth microdilution; AR-0560): > 32 µg/mL

Excerpt of the above:
CC(C)C(=O)OC[C@@]1(F)O[C@@H](n2cnc(-c3cnc(N)nc3)c2)[C@H](OC(=O)C(C)C)[C@@H]1OC(=O)C(C)C — EC50 (Dengue virus; viral replication; Huh-7, DENV-2; 48 h): 18 µM
N#Cc1c(-c2ccc(OCc3ccccc3)cc2)c(C(N)=O)c(N)n(N)c1=O — viable count (Escherichia coli; time-kill; 1 x MIC, 90 min): 0 log CFU/mL
